Published values gathered from unrelated publications.
A part holds a random share of what one study measured. Several values in a cell are separate wells, animals, samples, runs or records.
Chain of UniProt Q15349 (whole entry, looked up): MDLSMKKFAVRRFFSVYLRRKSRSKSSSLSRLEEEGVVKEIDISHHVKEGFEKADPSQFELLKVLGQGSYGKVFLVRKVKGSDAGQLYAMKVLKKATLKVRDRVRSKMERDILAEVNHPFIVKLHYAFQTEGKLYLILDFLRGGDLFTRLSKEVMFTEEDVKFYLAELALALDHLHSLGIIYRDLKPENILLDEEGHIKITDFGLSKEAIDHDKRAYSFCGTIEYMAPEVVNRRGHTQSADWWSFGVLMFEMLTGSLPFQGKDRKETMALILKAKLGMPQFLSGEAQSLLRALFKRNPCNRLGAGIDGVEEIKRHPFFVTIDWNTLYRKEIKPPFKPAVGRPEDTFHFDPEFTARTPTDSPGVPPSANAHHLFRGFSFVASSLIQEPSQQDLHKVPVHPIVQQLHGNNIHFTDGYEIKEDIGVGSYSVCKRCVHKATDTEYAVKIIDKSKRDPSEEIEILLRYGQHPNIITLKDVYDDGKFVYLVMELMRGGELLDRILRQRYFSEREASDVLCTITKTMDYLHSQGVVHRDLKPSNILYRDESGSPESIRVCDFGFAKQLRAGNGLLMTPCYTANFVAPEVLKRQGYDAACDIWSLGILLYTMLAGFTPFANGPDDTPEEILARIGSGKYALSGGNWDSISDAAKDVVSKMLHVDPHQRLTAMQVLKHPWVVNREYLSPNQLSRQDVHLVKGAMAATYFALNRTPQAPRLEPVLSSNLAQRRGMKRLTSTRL
Chain of UniProt Q15208 (whole entry, looked up): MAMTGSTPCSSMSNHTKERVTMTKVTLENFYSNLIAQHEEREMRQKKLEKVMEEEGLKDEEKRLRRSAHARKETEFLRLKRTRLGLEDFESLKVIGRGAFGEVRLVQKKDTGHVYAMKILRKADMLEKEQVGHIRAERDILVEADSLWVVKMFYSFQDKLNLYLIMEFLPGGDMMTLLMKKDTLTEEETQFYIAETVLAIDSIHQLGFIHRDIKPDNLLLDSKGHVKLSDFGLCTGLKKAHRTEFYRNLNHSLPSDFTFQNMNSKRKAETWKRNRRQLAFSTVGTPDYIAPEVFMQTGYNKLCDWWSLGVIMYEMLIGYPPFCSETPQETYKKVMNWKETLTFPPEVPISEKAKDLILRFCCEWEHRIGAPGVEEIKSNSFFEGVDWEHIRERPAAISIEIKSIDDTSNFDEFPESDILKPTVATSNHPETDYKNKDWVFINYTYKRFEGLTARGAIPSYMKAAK
Chain of UniProt P22607 (whole entry, looked up): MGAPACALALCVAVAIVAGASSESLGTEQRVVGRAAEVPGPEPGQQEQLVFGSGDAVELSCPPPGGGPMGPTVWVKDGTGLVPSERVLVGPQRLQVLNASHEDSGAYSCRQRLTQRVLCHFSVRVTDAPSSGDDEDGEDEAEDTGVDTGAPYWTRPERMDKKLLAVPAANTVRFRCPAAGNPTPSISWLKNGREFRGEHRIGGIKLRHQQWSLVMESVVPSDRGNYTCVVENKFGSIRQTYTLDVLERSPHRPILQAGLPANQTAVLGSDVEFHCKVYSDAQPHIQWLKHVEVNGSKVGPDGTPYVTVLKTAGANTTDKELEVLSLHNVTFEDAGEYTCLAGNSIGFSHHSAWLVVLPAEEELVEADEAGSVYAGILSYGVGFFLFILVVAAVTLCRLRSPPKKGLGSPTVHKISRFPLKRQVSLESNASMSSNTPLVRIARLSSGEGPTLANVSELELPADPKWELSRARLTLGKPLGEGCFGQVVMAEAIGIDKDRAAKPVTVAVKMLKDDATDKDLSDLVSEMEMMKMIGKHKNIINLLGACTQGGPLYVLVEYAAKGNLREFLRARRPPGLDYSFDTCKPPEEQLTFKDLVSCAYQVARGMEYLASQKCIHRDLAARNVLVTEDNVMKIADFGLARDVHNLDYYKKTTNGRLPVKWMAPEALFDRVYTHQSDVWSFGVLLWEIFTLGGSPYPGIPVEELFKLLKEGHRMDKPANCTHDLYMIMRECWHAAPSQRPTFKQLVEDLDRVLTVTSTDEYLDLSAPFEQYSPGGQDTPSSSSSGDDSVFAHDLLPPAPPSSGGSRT
Chain of UniProt Q8WU08 (whole entry, looked up): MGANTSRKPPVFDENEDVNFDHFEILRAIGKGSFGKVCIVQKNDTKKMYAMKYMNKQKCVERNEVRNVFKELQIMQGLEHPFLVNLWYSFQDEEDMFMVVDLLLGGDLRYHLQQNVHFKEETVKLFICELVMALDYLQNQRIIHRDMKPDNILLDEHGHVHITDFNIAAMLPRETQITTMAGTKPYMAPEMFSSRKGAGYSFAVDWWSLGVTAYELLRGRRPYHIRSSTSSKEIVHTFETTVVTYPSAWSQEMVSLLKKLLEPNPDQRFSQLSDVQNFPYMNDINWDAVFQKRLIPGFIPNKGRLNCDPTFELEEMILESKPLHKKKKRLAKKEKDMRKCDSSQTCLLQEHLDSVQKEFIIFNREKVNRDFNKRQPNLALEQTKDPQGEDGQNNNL
Chain of UniProt Q9NQU5 (whole entry, looked up): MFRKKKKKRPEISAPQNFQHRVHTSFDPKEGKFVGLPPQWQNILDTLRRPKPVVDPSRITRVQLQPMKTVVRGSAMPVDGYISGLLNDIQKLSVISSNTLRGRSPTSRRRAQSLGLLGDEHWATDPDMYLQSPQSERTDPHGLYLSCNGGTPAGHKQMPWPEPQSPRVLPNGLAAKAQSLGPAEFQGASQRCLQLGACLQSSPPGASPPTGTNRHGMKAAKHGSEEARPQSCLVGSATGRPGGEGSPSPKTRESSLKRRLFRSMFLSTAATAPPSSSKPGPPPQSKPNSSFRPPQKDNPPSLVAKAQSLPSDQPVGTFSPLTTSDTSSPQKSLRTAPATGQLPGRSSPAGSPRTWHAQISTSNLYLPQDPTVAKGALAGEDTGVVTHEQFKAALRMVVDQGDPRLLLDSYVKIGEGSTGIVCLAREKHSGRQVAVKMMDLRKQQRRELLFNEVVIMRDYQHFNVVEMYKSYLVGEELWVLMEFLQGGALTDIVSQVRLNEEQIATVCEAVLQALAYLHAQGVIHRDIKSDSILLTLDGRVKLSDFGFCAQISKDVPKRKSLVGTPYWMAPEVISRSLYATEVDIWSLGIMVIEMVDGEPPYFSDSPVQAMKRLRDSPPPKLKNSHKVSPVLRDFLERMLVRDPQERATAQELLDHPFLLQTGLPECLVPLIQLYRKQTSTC
Chain of UniProt Q86YV6 (whole entry, looked up): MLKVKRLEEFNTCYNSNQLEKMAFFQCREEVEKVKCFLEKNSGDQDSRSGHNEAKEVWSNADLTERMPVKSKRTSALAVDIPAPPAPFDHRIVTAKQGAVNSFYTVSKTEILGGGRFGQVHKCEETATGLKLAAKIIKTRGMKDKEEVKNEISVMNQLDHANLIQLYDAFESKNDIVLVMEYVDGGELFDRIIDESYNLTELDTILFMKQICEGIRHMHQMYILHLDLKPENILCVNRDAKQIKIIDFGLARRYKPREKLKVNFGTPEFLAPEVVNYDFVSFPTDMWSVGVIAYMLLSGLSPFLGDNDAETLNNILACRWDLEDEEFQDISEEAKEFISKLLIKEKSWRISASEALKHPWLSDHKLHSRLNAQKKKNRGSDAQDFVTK

Sample 1 — effect on: thermal unfolding; technique: differential scanning fluorimetry; tested at: 5.5 µM; reading: higher = more unfolded
SMILES: C[C@@H]1CN(c2ccc(-c3cc(C(=O)NCCOCCOCCOCCOCCNC(=O)Cn4cc(-c5[nH]cc(C(=O)N[C@@H](CC(N)=O)c6ccc(F)c(Cl)c6)c5-c5ccc(Cl)cc5F)cn4)ccc3F)cc2NC(=O)c2c[nH]c(=O)cc2C(F)(F)F)C[C@H](C)N1C
DCAF1: DDB1- and CUL4-associated factor 1 (DCAF1, Homo sapiens, UniProt Q9Y4B6)
Chain of UniProt Q9Y4B6 (whole entry, looked up): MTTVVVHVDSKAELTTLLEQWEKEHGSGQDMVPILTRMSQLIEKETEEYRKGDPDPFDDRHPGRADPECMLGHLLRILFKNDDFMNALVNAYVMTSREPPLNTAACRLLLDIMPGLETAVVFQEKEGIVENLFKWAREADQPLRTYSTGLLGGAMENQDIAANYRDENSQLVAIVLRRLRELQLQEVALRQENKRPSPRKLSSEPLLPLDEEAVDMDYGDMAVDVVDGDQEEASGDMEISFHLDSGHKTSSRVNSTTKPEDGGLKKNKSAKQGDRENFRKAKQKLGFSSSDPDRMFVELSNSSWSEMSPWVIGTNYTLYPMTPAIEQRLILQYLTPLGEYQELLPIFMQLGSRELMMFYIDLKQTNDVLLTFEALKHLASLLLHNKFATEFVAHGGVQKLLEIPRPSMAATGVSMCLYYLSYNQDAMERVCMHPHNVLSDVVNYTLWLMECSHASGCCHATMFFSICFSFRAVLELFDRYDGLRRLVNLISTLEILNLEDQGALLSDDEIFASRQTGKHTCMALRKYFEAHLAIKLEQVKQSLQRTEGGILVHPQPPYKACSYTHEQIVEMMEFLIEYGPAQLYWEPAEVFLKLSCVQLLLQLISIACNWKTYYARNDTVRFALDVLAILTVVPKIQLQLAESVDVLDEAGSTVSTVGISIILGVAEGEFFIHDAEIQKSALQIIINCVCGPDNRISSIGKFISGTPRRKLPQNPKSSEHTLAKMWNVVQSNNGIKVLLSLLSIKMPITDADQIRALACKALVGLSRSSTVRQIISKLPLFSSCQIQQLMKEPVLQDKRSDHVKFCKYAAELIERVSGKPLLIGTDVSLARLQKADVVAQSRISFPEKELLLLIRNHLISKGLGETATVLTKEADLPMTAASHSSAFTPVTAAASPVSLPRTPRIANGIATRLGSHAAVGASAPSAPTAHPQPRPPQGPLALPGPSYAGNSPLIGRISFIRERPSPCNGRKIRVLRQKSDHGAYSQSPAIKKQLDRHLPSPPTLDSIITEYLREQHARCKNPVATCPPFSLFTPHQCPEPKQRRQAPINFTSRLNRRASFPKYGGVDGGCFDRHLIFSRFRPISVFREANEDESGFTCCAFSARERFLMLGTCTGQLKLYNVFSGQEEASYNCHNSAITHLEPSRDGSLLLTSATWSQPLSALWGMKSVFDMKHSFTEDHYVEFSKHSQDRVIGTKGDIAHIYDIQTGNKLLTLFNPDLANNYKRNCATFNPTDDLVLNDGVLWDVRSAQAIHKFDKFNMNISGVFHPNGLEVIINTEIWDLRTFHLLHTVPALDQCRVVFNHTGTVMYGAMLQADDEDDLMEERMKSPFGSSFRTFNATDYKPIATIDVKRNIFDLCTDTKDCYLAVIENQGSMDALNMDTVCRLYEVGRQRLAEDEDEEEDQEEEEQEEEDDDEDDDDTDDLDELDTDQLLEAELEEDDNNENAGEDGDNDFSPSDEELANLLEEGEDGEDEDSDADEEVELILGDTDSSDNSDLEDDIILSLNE
WDR5: WD repeat-containing protein 5 (WDR5, Homo sapiens, UniProt P61964)
target | conditions | SYPRO Orange fluorescence [a.u.]
DCAF1 | 85.01 °C | 39800
WDR5 | 32.2 °C | 14400
WDR5 | 50.4 °C | 14400
WDR5 | 60.81 °C | 9940
DCAF1 | 91.21 °C | 33900
WDR5 | 78.41 °C | 18500
DCAF1 | 90.21 °C | 34900
WDR5 | 71.01 °C | 7210
DCAF1 | 89.81 °C | 35300
WDR5 | 92.61 °C | 40800
WDR5 | 29.6 °C | 15000

Sample 2 — cell line: AsPC-1; technique: in-cell ELISA
Compound: Cc1ncsc1-c1ccc(C(CO)NC(=O)C2CC(O)CN2C(=O)C(NC(=O)c2ccc(COc3c(-c4c(C)c(F)cc5[nH]ncc45)c(C4CC4)cc4c(N5CC6CC5CN6)nc(OC5CCOCC5)nc34)cc2)C(C)C)cc1 (stereo not shown)
conditions | phospho-ERK1/2 level
10 nM, per-experiment values | 93.7% and 87.1% and 94%
100 nM, individual replicates | 37.1% and 34.1% and 29.6% and 50.2% and 32.7% and 56.6%
30 nM, individual replicates | 79.1% and 72.7% and 84.4% and 81% and 88% and 84.3%
1 nM, per-experiment values | 96.3% and 98.1% and 90.2%
3 µM, individual replicates | 2.03% and 3.81% and 4.68% and 12.2% and 4.49% and 26.6%
10 µM, individual replicates | 10.9% and 5.68% and 6.16% and 16.7% and 7.14% and 5.87%
1 µM, per-experiment values | 5.03% and 11.3% and 4.46%
300 pM, individual replicates | 100% and 104% and 99.1% and 96.7% and 102% and 96.3%

Sample 3 — tested at: 1 µM
Compound: CC[C@@]1(c2cccc(-c3c(F)cncc3OC)c2)C2=C(Nc3n[nH]cc31)[C@H](F)C(C)(C)CC2=O (single isomer, unassigned)
target | test | scale | remaining binding [%]
MAP3K13 (Homo sapiens, UniProt O43283) | binding, competition with immobilised ligand |  | 70
SRPK2 (Homo sapiens, UniProt P78362) | kinase binding, KINOMEscan | relative to: DMSO control | 87
NEK9 (Homo sapiens, UniProt Q8TD19) | kinase binding, KINOMEscan | relative to: DMSO control | 93
IRAK1 (Homo sapiens, UniProt P51617) | kinase binding, KINOMEscan | relative to: DMSO control | 100
PRKAA2 (Homo sapiens, UniProt P54646) | kinase binding, KINOMEscan | relative to: DMSO control | 90
MST1R (Homo sapiens, UniProt Q04912) | binding, competition with immobilised ligand |  | 99
Ribosomal protein S6 kinase alpha-4, C-terminal kinase domain (RPS6KA4, Homo sapiens, UniProt O75676) | binding, competition with immobilised ligand |  | 74
Tyrosine-protein kinase ABL1, phosphorylated (ABL1, Homo sapiens, UniProt P00519, T315I) | kinase binding, KINOMEscan | relative to: DMSO control | 77
CHUK (Homo sapiens, UniProt O15111) | binding, competition with immobilised ligand |  | 85
STK32A (Homo sapiens, UniProt Q8WU08) | kinase binding, KINOMEscan | relative to: DMSO control | 81
STK38 (Homo sapiens, UniProt Q15208) | binding, competition with immobilised ligand |  | 60
MYLK4 (Homo sapiens, UniProt Q86YV6) | binding, competition with immobilised ligand |  | 100
PI4KB (Homo sapiens, UniProt Q9UBF8) | binding, competition with immobilised ligand |  | 66
FGFR1 (Homo sapiens, UniProt P11362) | binding, competition with immobilised ligand |  | 96
PAK6 (Homo sapiens, UniProt Q9NQU5) | binding, competition with immobilised ligand |  | 99
Ribosomal protein S6 kinase alpha-2, C-terminal kinase domain (RPS6KA2, Homo sapiens, UniProt Q15349) | kinase binding, KINOMEscan | relative to: DMSO control | 100
FLT3 ITD, human | KINOMEscan |  | 93
FGFR3 (Homo sapiens, UniProt P22607) | kinase binding, KINOMEscan | relative to: DMSO control | 100

Sample 4 — host: female CD-1 mouse; matrix: plasma; route: oral; dose: 60 mg/kg
SMILES | Cmax [ng/mL]
Cc1ccc(O)c(C)c1-c1cnc2[nH]c(-c3cnc(N4CCC(CN5CCN(c6cc7c(cc6F)c(N6CCC(=O)NC6=O)nn7C)CC5)CC4)nc3)cc2c1C#N | 1930
Cc1ccc(O)c(C)c1-c1cnc2[nH]c(-c3cnc(N4CCC(CCN5CCN(c6ccc(NC7CCC(=O)NC7=O)cc6F)CC5)CC4)nc3)cc2c1C#N (stereo not shown) | 1180
Cc1ccc(O)c(C)c1-c1cnc2[nH]c(-c3cnc(N4CCC(CN5CCN(c6ccc(NC7CCC(=O)NC7=O)cc6F)CC5)CC4)nc3)cc2c1C#N (stereo not shown) | 3650
Cc1ccc(O)c(C)c1-c1cnc2[nH]c(-c3cnc(N4CCC5(CC4)CC(N4CCN(c6ccc(NC7CCC(=O)NC7=O)cc6F)CC4)CO5)nc3)cc2c1C#N (stereo not shown) | 1630
Cc1ccc(O)c(C)c1-c1cnc2[nH]c(-c3cnc(N4CCC(CN5CCN(c6ccc7c(c6)C(=O)N(C6CCC(=O)NC6=O)C7=O)CC5)CC4)nc3)cc2c1C#N (stereo not shown) | 1140
Cc1ccc(O)c(C)c1-c1cnc2[nH]c(-c3cnc(N4CCC(CN5CCN(c6ccc7c(c6F)CN(C6CCC(=O)NC6=O)C7=O)CC5)CC4)nc3)cc2c1C#N (stereo not shown) | 2030

Excerpt of the above (sample 3):
target | test | scale | remaining binding [%]
PRKAA2 (Homo sapiens, UniProt P54646) | kinase binding, KINOMEscan | relative to: DMSO control | 90
MST1R (Homo sapiens, UniProt Q04912) | binding, competition with immobilised ligand |  | 99
Ribosomal protein S6 kinase alpha-4, C-terminal kinase domain (RPS6KA4, Homo sapiens, UniProt O75676) | binding, competition with immobilised ligand |  | 74
Tyrosine-protein kinase ABL1, phosphorylated (ABL1, Homo sapiens, UniProt P00519, T315I) | kinase binding, KINOMEscan | relative to: DMSO control | 77
CHUK (Homo sapiens, UniProt O15111) | binding, competition with immobilised ligand |  | 85
STK32A (Homo sapiens, UniProt Q8WU08) | kinase binding, KINOMEscan | relative to: DMSO control | 81
